Assay results pooled from the literature.
Numbered parts are unrelated; each lists some results of a single study.

Set 1
Target: Fragile X messenger ribonucleoprotein 1, C-terminal low-complexity region (Fmr1, Mus musculus, UniProt P35922)
Method: RNA Bind-n-Seq
Form: RNA
Matrix: in vitro
Concentration: 200 nM
Notes: whole 134-nt RNA, ends assumed
With: 150 mM LiCl
Relative to: input library
Direction: higher = stronger binding
Library: 7-deaza-guanosine replaces G
Shared flanks, not repeated: GGGAGUUCUACAGUCCGACGAUC … UGGAAUUCUCGGGUGUCAAGG
Strand	log2 enrichment
UGCCUGCUCCGGGCCCCGUGCUGGCGCCUACGCACCUGCAGACAGAGCUGGUGCUGAGGUGCCAGAAGGAGACCGACUGUGACCUCUGUC	-1.39
GCAGGAAGUAAAAACAAAUGGAAAUGCUUCGGAUAGUGGCAGGGGUGGGGGUUGCUAAGGAAAGGGUGGGAUGGGAUUGGGUAAAGAGUU	1.26
UGGCCCUGGUGGCAGGCGGGGAGGAAGAGGUGGCCUCAUGGAUCGUGGUGGUCCCGGUGGAAUGUUCAGAGGUGGCCGUGGUGGAGACAG	0.715
ACCAUGCAGGUGGGCAUCUUUGGGAAGUGGGGCAAGGGGGGGAUAGGGAGAAAGGUAACACUUUGGGAACAGGUGGUCCCAGGUCGUUUC	0.261
CUCAAGUCCUGUGCUACACAUCGUAUGUACCGAAUCGGGAAGGAAGGAAGGGGAAAGUAUUAUGUUACGCCGUUCGGAUCUGCACUUCCA	-0.824
UCCUGUGCUACACAUCGUAUGUACCGAAUCGGGGAAAAAGGGAAAAAGGGGAAAAAGGGGAAAGUAUUAUGUUACGCCGUUCGGAUCUGC	-0.6
UGUGUCUUGCUGAAUCAGGGCUCUCUUAUCCCUGCCAUCGACUUACAGUGGGAAGAAGAUCUUCACCUGCACAGACCCGGGAACAGUCGG	-2.18
CAAGUCCUGUGCUACACAUCGUAUGUACCGAAUCGGUUUUUUUGGAAAGGUUUGGAAAGUAUUAUGUUACGCCGUUCGGAUCUGCACUUC	-2.75
UCAAGUCCUGUGCUACACAUCGUAUGUACCGAAUCGGAAAGGAAAGGAAAGGGGAAAGUAUUAUGUUACGCCGUUCGGAUCUGCACUUCC	-0.787
ACCAUGCAGGUGGGCAUCUUUGGGAAGUGGGGCAAGGGGGGGAUAGGGAGGGGGGUAACACUUUGGGAACUGGUGGUCCCAGGUCGUUUC	1.56
AAGUCCUGUGCUACACAUCGUAUGUACCGAAUCGGUUUGGUUUUUUUGGUUUUUGGAAAGUAUUAUGUUACGCCGUUCGGAUCUGCACUU	-1.64

Set 2
Target: Interferon regulatory factor 5, full length, phosphomimetic (IRF5, Homo sapiens, UniProt Q13568-2, residues 1-514, K96S/S451D/S453D/S456D/S462D)
Method: protein-binding microarray
Form: double-stranded DNA, one strand shown
Matrix: in vitro
Concentration: 250 nM
Notes: 60-bp whole probe
With: salmon DNA 0.4 mg/ml
Relative to: random background probes
Direction: higher = stronger binding
Shared flanks, not repeated: GCCTAGCAC … GTCTTGATTCGCTTGACGCTGCTG
Strand	log fluorescence [z-score]
TTGGGTCTCCTTTTCCTTTAGTGCTAG	0.106
TTAGGACTGGGACTGGGTTTGTGCTAG	-0.519
TTAGGACTGGTTCTCGGTTAGTGCTAG	0.395
TCATGTTGTTTTTTGGTACTGTGCTAG	1.16
CGCCCACTCATGCCTCTTAAGGTGCTA	-0.202
GACGGTATCGCTCTCGGGACGTGCTAG	1.33
TCAGATGTGTATATGACACTGTGCTAG	-0.0973
TTAGGTCTCCTACTGCTTAAGTGCTAG	-0.207
GACGGACTGCTTTTCCTGCCGTGCTAG	-0.118
GACGATCACAGTCTCGAGACGTGCTAG	-0.428
GACGGTATCCGGTTTCGGGACGTGCTA	2.88
TGTCTGTCTGTCACCCGGACGTGCTAG	0.373
TCAAGTCCCCTCTTCTGACTGTGCTAG	-0.473
TTAGGTTTCGGACTGGGTGAGTGCTAG	5.27
TGAGGTATCGGTTTCGGTTAGTGCTAG	10.7
TTAGGTTTCGGTTCCCGTTAGTGCTAG	10.5
TTAGATATCAGTTGCGATTAGTGCTAG	2.49
CTGTTCTGCAGACTTCTGTCGTGCTAG	-0.113
GACGGTTTCGGTAGCGGGACGTGCTAG	9.01
TTAGGTATCGGACTTGGTTAGTGCTAG	1.28
TTAGGTTTCGAACTGGGTTAGTGCTAG	3.29
GACCGTATCGGTATCGGGACGTGCTAG	6.38
GATTATAAAATGTGTGTTTGGTGCTAG	0.423
GACGGTTTCGGACTGGCGACGTGCTAG	4.18
GAGGGTTTCGGGTATCGGGACGTGCTA	6.44

Set 3
Target: Histone acetyltransferase KAT6A, both winged helices, GST fusion (KAT6A, Homo sapiens, UniProt Q92794, residues 1-181)
Method: protein binding microarray
Form: double-stranded DNA, one strand shown
Matrix: in vitro
Concentration: not given
Notes: 8-mer, flanks averaged, mean of 2 arrays, mostly near background
Relative to: not given
Direction: higher = stronger binding
Residues (chain): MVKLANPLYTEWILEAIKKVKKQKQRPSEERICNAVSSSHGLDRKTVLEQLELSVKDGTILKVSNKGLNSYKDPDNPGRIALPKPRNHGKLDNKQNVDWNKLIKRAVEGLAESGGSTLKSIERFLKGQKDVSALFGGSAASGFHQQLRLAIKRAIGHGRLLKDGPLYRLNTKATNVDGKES
Strand	E-score
AGGCGCGA	0.269
ACTTTATA	-0.0185
ACATACTG	-0.0932
GCCACGGC	0.299
CACCTATG	0.0396
GAACAAAC	-0.0529
CAGGTAAA	0.0158
GGCTTCCC	0.0552
ACGGACTC	0.242
CTCCACCA	-0.231
ACAATGGG	-0.15
CTGGTAAA	-0.153
CCCGGCAG	0.105
AGTACACT	-0.213
ACCGGGAT	0.165
GCCAGCTA	-0.137
CGGACAAG	0.237
CATTGCTC	-0.0842
CGATATTC	0.0841
GCTTTACC	0.0988
AAATAAAC	-0.00284
ATCTTGGA	-0.22
GACTAATA	-0.105

Set 4
Target: RNA binding protein fox-1 homolog 2, RRM domain, GST-SBP tag (RBFOX2, Homo sapiens, UniProt O43251-10, residues 100-194)
Method: RNA Bind-n-Seq
Form: RNA
Matrix: in vitro
Concentration: 365 nM
Notes: natural RNA segment, single round, ends assumed
Relative to: no-protein control
Direction: higher = stronger binding
Shared flanks, not repeated: GGGAGUUCUACAGUCCGACGAUC … UGGAAUUCUCGGGUGCCAA
Target sequence (chain): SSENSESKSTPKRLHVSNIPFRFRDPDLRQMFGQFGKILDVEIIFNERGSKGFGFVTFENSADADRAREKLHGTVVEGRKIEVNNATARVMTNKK
Strand	RBNS enrichment (R)
UUUAAUUUUGUCCAUCCUAGAGAUAAUAACGAAAGAGAAAUGUCUGCAUGUGUGCACACACACACAUCUUAGAUACACAAAAAGAAAUGUUCAGAUUCCUUUGAGAAUUU	0.522
GCUCCAACGCACAAUCCUUACUGUGCCCUUUCCACCCCCACACUCACACCAAUCUGCAGAAACCUCUUCCCUGGGGUGGAAGCCAGAGAGCUUAGAGGAAAAAGGUCAGC	0.329
GGGCUGGGGGUCAGUCCAGCCCGGGCCUCCCAGAACACCAGGCCCGUGUGGGUGGCACCCUGAGGUCAGGGGAUCCUAAGGGUGUCCUUCCAGAGACGGUGUUUCCAGGG	0.806
UAAAGAUGCAGAACGAACAGUUUGUGUGUGGGACUGACCCACCCACACACAGCAGGGCACUUGUUCUGCCUCAGGCUGCAUCUACUCAGUGCCGUUAAUAAACUUUAGAU	0.667
CCUACCCACCCAAAGAUAGAUAUCCUUUAAAGAAAAUAAAGGCAGAGAAUUAAAACUGGGGAGCCAUUUACUAUGUCACCAUCACUGUUAACUGUUUCCCAGCAAUCUAA	0.695
AAGACCUUUCCCAUAGGAGUUCAAGAACUGGACUGUUGUGAAGAAGUCAGCUCUUAUCUCAGGUUGGUAUCUUUCAUCAAAUCCAGAUGCAAAGCAGCACUAGUGAAAAU	0.417
UAGGUAGAAAAACAUAUUCUUGUGCUUUUCCUGAUAAAGCACAGCUGUAGUGGGGUUCUAGGCAUCUCUGUACUUUGCUUGCUCAUAUGCAUGUAGUCACUUUAUAAGUC	5.8
AGAUGCUCAAAGUCCCUUUUCUGUUUGUUUGUUUAUAGAUGAACUAUCUAUCUUAUUUCAGUACUUCGGCAAGAGAGAACCUAACUGUAUCUUUGAGGCGAUAGUAGAAC	0.329
CAGGCUCCCAGUGCAGCCUCCUCUUGCUACGCCAUGCCACCCCCAUUCACAGGGAAACCUCUUUCCUUCCUAUAAAGGAAAGAGGUUGAAUUGACUCACAUUUCCACAUG	0.38
UGUUACAAAAUGUAACUGUUACCAUUGGAAAUUUCACAUGUCAAAGGAGGUUAGCCGUUAUUUACCAACUUUCAAGAACGUAAUCUUGUUCAAUAAGGUGAAAUAUCAAU	0.347
UCCCGCCUCCCUCUCAGAGGCCUGCUGCCAGUGCAGCCACUGGCUUGGAACACCUUGGGGUCCCUCCACCCCACAGAACCUUCAACCCAGUGGGUCUGGGAUAUGGCUGC	0.278
UUUUGGUUCCACUUGGACAACAAACAGUAUUUGCAGAGUGAUUUCAGGAGAGAGCAGGUCUGAGGAAUAUGCAAAACUGUAGUUACUGUGUGGGCCAUUGACUGCCUUGA	0.738

Set 5
Target: Sal-like protein 4, full length isoform A (SALL4, Homo sapiens, UniProt Q9UJQ4, residues 1-1053)
Sequence of UniProt Q9UJQ4 (whole entry, looked up): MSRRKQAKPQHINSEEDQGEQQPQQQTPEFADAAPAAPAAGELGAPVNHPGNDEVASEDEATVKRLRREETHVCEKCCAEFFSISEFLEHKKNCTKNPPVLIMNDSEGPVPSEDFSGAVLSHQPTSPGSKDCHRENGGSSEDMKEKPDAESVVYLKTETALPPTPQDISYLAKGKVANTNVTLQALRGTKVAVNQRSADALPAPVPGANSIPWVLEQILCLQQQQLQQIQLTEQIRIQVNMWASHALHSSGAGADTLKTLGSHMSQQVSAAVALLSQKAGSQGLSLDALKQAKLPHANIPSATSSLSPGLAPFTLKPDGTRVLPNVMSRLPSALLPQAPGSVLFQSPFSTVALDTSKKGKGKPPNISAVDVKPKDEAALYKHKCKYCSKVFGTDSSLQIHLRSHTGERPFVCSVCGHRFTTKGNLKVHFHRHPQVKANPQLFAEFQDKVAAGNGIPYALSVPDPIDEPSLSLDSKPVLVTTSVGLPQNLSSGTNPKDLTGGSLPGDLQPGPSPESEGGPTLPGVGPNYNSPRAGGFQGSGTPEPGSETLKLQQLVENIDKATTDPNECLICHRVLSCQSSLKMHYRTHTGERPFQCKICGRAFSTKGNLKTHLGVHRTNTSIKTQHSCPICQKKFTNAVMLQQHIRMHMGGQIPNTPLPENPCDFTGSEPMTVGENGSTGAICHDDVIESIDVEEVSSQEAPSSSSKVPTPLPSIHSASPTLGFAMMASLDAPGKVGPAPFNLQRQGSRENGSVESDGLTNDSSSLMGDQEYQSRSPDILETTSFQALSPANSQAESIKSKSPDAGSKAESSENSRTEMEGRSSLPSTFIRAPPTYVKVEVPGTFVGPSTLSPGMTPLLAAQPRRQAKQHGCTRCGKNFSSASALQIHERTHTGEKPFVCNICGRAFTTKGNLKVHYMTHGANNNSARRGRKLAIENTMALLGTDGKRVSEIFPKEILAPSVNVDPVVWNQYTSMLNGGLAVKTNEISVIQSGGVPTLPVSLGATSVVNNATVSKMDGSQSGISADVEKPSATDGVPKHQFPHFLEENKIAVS
Method: universal PBM
Form: double-stranded DNA, one strand shown
Matrix: in vitro
Concentration: 600 nM
Notes: 8-mer, flanks averaged, mean of replicates
Direction: higher = stronger binding
Strand	E-score
CTGCGCAG	-0.208
TAACCCCA	-0.142
AATTGATG	0.322
CTGCCTAC	0.0178
ACTGTAAT	0.254
GAACCCAA	-0.179
CGGCGGCA	-0.372
CGCAAAGA	0.0421
ACGTAAAC	-0.0217
AACGATTC	0.107
ACCCAAAG	-0.0768
GTAAAGTA	0.212
ACAGCAGT	-0.0614
ACGTTCCC	-0.154
AGCCGCCA	-0.325
TCAGCGGA	-0.175
GGCAAAGA	0.0346
AACAGAAT	0.15
CCCGATCA	-0.239

Some of these lines once more (set 5):
Strand	E-score
GAACCCAA	-0.179
CTGCCTAC	0.0178
ACCCAAAG	-0.0768
CGCAAAGA	0.0421
CGGCGGCA	-0.372
TAACCCCA	-0.142
AACAGAAT	0.15
ACGTTCCC	-0.154
CCCGATCA	-0.239
GGCAAAGA	0.0346
AATTGATG	0.322
ACAGCAGT	-0.0614
